Experimental data of several laboratories.
Every numbered part comes from another study and shows a few of its results, in no order. Changes are numbered by the printed parent chain.

Set 1 — method: protein-binding microarray; form: hairpin DNA; matrix: in vitro; concentration: not given; relative to: not given; reading: higher = stronger binding
Target: Runt-related transcription factor 1, full length (RUNX1, Homo sapiens, UniProt Q01196-8, residues 1-480)
Setting: whole hairpin DNA, median over replicate spots
Strand | median fluorescence
GAGGCCTGTTGTGGTAGGCCTCCTGGCCTACCACAACAGGCCTCACACTC | 2120 a.u.
GAGGCCCGACCGCAACAGCCTCCTGGCTGTTGCGGTCGGGCCTCACACTC | 5060 a.u.
CTCAGTTCTGCGGGCTGGACTCCTGTCCAGCCCGCAGAACTGAGACACTC | 2270 a.u.
GAGGCCCGTCGCGGTTGGCCTCCTGGCCAACCGCGACGGGCCTCACACTC (5mC at 7) | 2650 a.u.
GAGGCCTGTTGCCGTTGGCCTCCTGGCCAACGGCAACAGGCCTCACACTC (5mC at 13 31) | 1760 a.u.
GAGGCCTCTCGCGGTTGGCCTCCTGGCCAACCGCGAGAGGCCTCACACTC (5mC at 8) | 2530 a.u.
GAGGCCCAAACGCAACAGCCTCCTGGCTGTTGCGTTTGGGCCTCACACTC | 1760 a.u.
GAGGCCTGTCGCGGTGGGCCTCCTGGCCCACCGCGACAGGCCTCACACTC | 2200 a.u.
GAGGCCTGTTGTCGTTGGCCTCCTGGCCAACGACAACAGGCCTCACACTC | 1650 a.u.
GAGGCCTGTGGCGGTTGGCCTCCTGGCCAACCGCCACAGGCCTCACACTC | 2570 a.u.
GAGGCCCGACCGCAACAGCCTCCTGGCTGTTGCGGTCGGGCCTCACACTC (5mC at 7 37) | 4560 a.u.
GAGGCCTGTCGCGGTTGGCGTCCTCGCCAACCGCGACAGGCCTCACACTC (5mC at 25) | 2960 a.u.
GAGGCCTGTCGGGGTTGGCCTCCTGGCCAACCCCGACAGGCCTCACACTC | 2060 a.u.
GAGGCCCTACCGCAACAGCCTCCTGGCTGTTGCGGTAGGGCCTCACACTC | 2750 a.u.

Set 2 — method: universal PBM; form: double-stranded DNA, one strand shown; matrix: in vitro; concentration: not given; reading: higher = stronger binding
Target: Sal-like protein 4, full length isoform B (SALL4, Homo sapiens, UniProt Q9UJQ4-2, residues 1-616)
Setting: 8-mer, flanks averaged, mean of replicates
Construct (chain): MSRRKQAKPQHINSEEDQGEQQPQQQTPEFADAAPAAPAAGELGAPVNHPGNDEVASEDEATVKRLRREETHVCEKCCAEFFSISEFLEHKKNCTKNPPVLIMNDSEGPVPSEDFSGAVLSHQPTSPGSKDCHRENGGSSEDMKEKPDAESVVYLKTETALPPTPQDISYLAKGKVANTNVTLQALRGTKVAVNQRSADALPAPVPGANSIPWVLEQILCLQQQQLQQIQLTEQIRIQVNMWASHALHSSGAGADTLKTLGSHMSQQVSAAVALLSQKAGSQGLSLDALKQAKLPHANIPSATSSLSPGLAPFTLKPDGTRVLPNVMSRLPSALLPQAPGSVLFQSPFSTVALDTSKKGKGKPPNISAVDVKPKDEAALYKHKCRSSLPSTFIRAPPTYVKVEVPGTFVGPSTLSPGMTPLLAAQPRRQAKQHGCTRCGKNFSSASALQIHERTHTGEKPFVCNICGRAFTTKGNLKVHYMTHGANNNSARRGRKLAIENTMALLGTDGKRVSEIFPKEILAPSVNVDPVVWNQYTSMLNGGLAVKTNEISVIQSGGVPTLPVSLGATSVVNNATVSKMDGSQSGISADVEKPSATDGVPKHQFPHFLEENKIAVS
Strand | E-score
CTGAAACC | -0.114
ATTCTTAG | 0.0428
GCAAAAAA | 0.205
AATATCAC | 0.321
CCACGTCA | -0.00772
ACCGTCCT | 0.0741
CTCCCCCA | -0.091
CCATAACC | 0.249
AGTTCTAT | 0.0858
GGGTCCAA | -0.171
CAGCCGGC | -0.325
GCGGGGAA | -0.0927
CGTCTTCA | -0.0457
GAGGGCGA | -0.241
CAGCACCC | -0.333
ACGCGACC | -0.205
CCTCCGAA | -0.195
ACCGTTAG | 0.00707
ATCTGAAT | 0.102
CCGCATAG | 0.0541
AATGTTAG | 0.0803
AAGGCACG | -0.118
AACCTATA | 0.295
ATGCCGAA | 0.00015
TACCGGCA | -0.123

Set 3 — method: DHFR PCA, deep sequencing; matrix: yeast; added: (+)-ABA 0.39 µM; relative to: wild-type fitted maximum; reading: higher = stronger binding
Target: ABI1, truncated, D143A, DHFR fusion (Arabidopsis thaliana)
Setting: methotrexate growth selection, single substitutions
Starting sequence: PYL1, truncated, DHFR fusion (Arabidopsis thaliana); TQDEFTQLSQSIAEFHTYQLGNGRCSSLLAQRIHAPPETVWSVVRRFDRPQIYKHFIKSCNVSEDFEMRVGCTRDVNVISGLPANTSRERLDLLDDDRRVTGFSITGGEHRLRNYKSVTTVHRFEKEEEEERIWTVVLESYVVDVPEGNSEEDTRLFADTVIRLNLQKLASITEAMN
Change | relative binding score
G71E | -7.08%
P37Y | -3.05%
D65I | -1.24%
V40T | -1.24%
A35P | -7.59%
Q2M | 62.4%
L8Q | 8.39%
F5I | 44.6%
T119R | -1.07%
D96P | -6.54%

Set 4 — method: RNA Bind-n-Seq; form: RNA; matrix: in vitro; concentration: 200 nM; setting: whole 134-nt RNA, ends assumed; added: 150 mM LiCl; relative to: input library; reading: higher = stronger binding; all molecules: 7-deaza-guanosine replaces G
Target: Fragile X messenger ribonucleoprotein 1, C-terminal low-complexity region (Fmr1, Mus musculus, UniProt P35922)
Strand | log2 enrichment
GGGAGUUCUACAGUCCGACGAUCUGGCCCUGGUGGCAUGCGGGGAGGAAGAGGUGGCCUCAUGGAUCGUGGUGGUCCCGGUGGAAUGUUCAGAGGUGGCCGAGGUGGAGACAGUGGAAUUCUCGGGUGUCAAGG | -0.793
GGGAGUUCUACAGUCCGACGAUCUCCUGUGCUACACAUCGUAUGUACCGAAUCGGGGCCCCCCGGCCCCCCGGGGCCCCCCGGAAAGUAUUAUGUUACGCCGUUCGGAUCUGCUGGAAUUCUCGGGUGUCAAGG | -0.852
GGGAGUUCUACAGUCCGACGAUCUAACUUUAGAGGAGGAUCUGAUGGAUAUGGCAGUGGACGUGGAUUUGGCGAUGGCUAUAAUGGGUAUGGAGGAGGACCUGGAGGUGGCAAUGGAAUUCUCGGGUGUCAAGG | 0.21
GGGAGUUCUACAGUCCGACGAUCUCAAGUCCUGUGCUACACAUCGUAUGUACCGAAUCGGGGAAAGGAAAGGAAAGGAAAGUAUUAUGUUACGCCGUUCGGAUCUGCACUUCCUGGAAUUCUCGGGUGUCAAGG | -0.488
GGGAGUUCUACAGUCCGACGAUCUCCUGUGCUACACAUCGUAUGUACCGAAUCGGGGUUUUUUUGGGGAAAAAGGGGAGGGGAAAGUAUUAUGUUACGCCGUUCGGAUCUGCAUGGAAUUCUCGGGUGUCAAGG | -0.915
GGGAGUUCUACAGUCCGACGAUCUAACUUUAGAGGAGGAUCUGAUGGAUAUGGCAGUGGACGUGGGUUUGGGGAUGGCUAUAAUGGGUAUGGAGGAGGACCUGGAGGUGGCAAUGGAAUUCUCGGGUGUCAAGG | 0.451
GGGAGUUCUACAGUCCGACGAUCGUCCUGUGCUACACAUCGUAUGUACCGAAUCGGUUUUUUGGGGUUUUUUGGUUUUUUGGAAAGUAUUAUGUUACGCCGUUCGGAUCUGCAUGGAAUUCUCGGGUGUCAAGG | -1.34
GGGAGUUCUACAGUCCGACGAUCUGUGCUACACAUCGUAUGUACCGAAUCGGGGUUUUUUUGGGGUUUUUUUGGUUUUUUUGGGGAAAGUAUUAUGUUACGCCGUUCGGAUCUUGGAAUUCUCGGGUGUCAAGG | 1.21

Set 5 — method: protein binding microarray; form: double-stranded DNA, one strand shown; matrix: in vitro; concentration: not given; relative to: not given; reading: higher = stronger binding
Target: Histone acetyltransferase KAT6A, both winged helices, GST fusion (KAT6A, Homo sapiens, UniProt Q92794, residues 1-181)
Setting: 8-mer, flanks averaged, mean of 2 arrays, mostly near background
Construct (chain): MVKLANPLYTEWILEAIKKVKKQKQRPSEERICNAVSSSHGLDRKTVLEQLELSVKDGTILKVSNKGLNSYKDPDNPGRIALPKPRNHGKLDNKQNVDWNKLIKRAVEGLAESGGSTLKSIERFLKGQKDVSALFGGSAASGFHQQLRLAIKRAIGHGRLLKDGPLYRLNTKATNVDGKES
Strand | E-score
AACTGGAT | -0.0922
AATCGGCG | 0.243
CTCCTTGA | -0.0769
ACATACAC | 0.00309
ATCCACAT | -0.0868
GTGCGCCA | 0.168
AAGACTCC | -0.0631
GGCACCAC | 0.0774
ACAACCGG | 0.177
ACCGACGC | 0.33
ATCCCAAT | -0.0879
TCGGGGAA | 0.0878
ACGAATAG | -0.124
AATCGGGA | 0.0693
ACGACGGG | 0.183
GCACTCAA | -0.0527
CTTGGGTC | -0.218
AAGAAACA | 0.0471
GCCTCCTA | -0.102
ACTACTCT | -0.039
GCGTTCGA | 0.164
ATTACGTA | 0.0378
